Measured values gathered from unrelated publications.
Each line is one published result; not all experiments were run side by side. Numbers after ± are the reported error.

SMILES | target | test | system | conditions | scale | endpoint | result
C=C(F)C(=O)Nc1cnn2ccc(-c3ccc(C4CCCCC4)cc3)nc12 | YAP-TEAD4 | reporter gene | HEK-293T Gal4-TEAD4 UAS-luciferase | 20 µM, 24 h |  | inhibition | 96%
O=C(N/N=C/c1ccc2c(ccc[n+]2Cc2ccccc2)c1)N/N=C/c1ccc2c(ccc[n+]2Cc2ccccc2)c1 | G-quadruplex DNA 22CTA antiparallel | FRET melting |  | 1 µM, K10 buffer, with: DNA 0.2 µM |  | delta Tm | 11 to 14 °C
CC1OC(Oc2c(-c3ccc(O)cc3)oc3cc(O)cc(O)c3c2=O)C(OC(=O)C=Cc2ccc(O)cc2)C(O)C1OC(=O)C=Cc1ccc(O)cc1 (stereo not shown) | CCR2 | macrophage infiltration | mouse, thioglycollate peritonitis, peritoneum | intraperitoneal, 150 mg/kg |  | inhibition | 92.8%
CC[C@H](C)[C@H](NC(=O)[C@H](CCCCN)NC(=O)[C@H](CCCNC(=N)N)NC(=O)[C@H](Cc1ccc(O)cc1)NC(C)=O)C(=O)N[C@@H](CC(C)C)C(=O)N[C@@H](CC(N)=O)C(=O)N[C@@H](CC(=O)O)C(=O)N[C@@H](CC(C)C)C(=O)N[C@@H](CO)C(=O)N[C@@H](CO)C(=O)N[C@@H](CC(=O)O)C(=O)N[C@@H](C)C(N)=O | CREB | reporter gene, inhibitor, CRE Renilla luciferase | HEK-293T | 30 min, with: forskolin 10 µM for 5 h |  | IC50 | > 100 µM
Cc1sc2ncn(CC(=O)N3CCCC3)c(=O)c2c1-c1cccc(Br)c1 | NMDA receptor mouse | patch clamp with Ca2+ imaging | cultured cortical neurons | 50 µM | relative to: vehicle | calcium fluorescence increase | 1.75 fold
CC(=O)N[C@@H](Cc1ccc(O)cc1)CN(CC(=O)N[C@@H](CCCCN)CN(CC(=O)N[C@@H](Cc1ccccc1)CN(CC(=O)N[C@H]1CCCCNc2c(F)c(F)c(c(F)c2F)S(=O)(=O)c2c(F)c(F)c(c(F)c2F)NCCCC[C@@H](CN(CC(=O)N[C@@H](C)CN(CC(N)=O)S(=O)(=O)c2ccc(Cl)cc2)S(C)(=O)=O)NC(=O)CN(S(=O)(=O)CC(C)C)C[C@H](CC(C)C)NC(=O)CN(S(=O)(=O)CCN)C1)S(=O)(=O)CC(C)C)S(=O)(=O)CCN)S(C)(=O)=O | CREB | reporter gene, inhibitor, CRE Renilla luciferase | HEK-293T | 30 min, with: forskolin 10 µM for 5 h |  | IC50 | 23.4 ± 7.97 µM
CC[C@H](C)[C@@H]1NC(=O)[C@H](CCCNC(=N)N)NC(=O)[C@H](C)NC(=O)CNC(=O)[C@H](CCCCN)NC(=O)[C@H](CCCNC(=N)N)NC(=O)[C@H](C(C)C)NC(=O)[C@H](C)NC(=O)[C@@H]2CSSC[C@@H]3NC(=O)[C@H](CO)NC(=O)[C@H]([C@@H](C)O)NC(=O)CNC(=O)[C@H](CCCNC(=N)N)NC(=O)[C@@H]4CCCN4C(=O)[C@H](CSSC[C@@H](C(=O)N[C@@H](CC(C)C)C(=O)O)NC(=O)[C@H](CCCCN)NC(=O)[C@H](CC(C)C)NC(=O)[C@H](CC(C)C)NC(=O)[C@H](Cc4ccccc4)NC(=O)[C@H](CO)NC(=O)[C@H](CC(N)=O)NC3=O)NC(=O)[C@H](CC(=O)O)NC(=O)[C@H](CSSC[C@H](NC(=O)[C@H](CCSC)NC(=O)[C@@H]3CCCN3C(=O)[C@@H](NC(=O)[C@H](CCC(N)=O)NC(=O)CNC(=O)[C@H](Cc3ccc(O)c(I)c3)NC(=O)[C@@H](N)CCCCN)C(C)C)C(=O)N[C@@H](CC(=O)O)C(=O)N[C@@H](C)C(=O)NCC(=O)N[C@@H](CCC(=O)O)C(=O)N[C@@H](CCC(N)=O)C(=O)N2)NC(=O)[C@H](CC(C)C)NC(=O)[C@H](CCCCN)NC(=O)CNC1=O [iodine-125 labelled] | CART peptide binding site (rat) |  | PC-12 differentiated 3 days | concentration not given | relative to: undifferentiated cells | specific binding increase | ~4 fold
CSCCN(CCSC)CCc1ccccn1 | Cu(I) | competition titration |  | 10 µM, pH 7.0, ionic strength 0.1, with: Cu(I) 1 µM | higher = stronger binding | pCu | 16.2
C[C@@H](N)C1CCN(S(=O)(=O)c2cccc3c(=O)[nH]ccc23)CC1 | ROCK | MLC2 phosphorylation, inhibitor | HUVEC | 50 µM, 1 h, with: LPA | relative to: LPA alone | inhibition | 61%
CC(=O)N[C@@H](Cc1ccc(O)cc1)CN(CC(=O)N[C@@H](CCCCN)CN(CC(=O)N[C@@H](Cc1ccccc1)CN(CC(=O)N[C@H]1CCCCNc2c(F)c(F)c(c(F)c2F)S(=O)(=O)c2c(F)c(F)c(c(F)c2F)NCCCC[C@@H](CN(CC(=O)N[C@@H](C)CN(CC(N)=O)S(C)(=O)=O)S(C)(=O)=O)NC(=O)CN(S(=O)(=O)CC(C)C)C[C@H](CC(C)C)NC(=O)CN(S(=O)(=O)CCN)C1)S(=O)(=O)CC(C)C)S(=O)(=O)CCN)S(=O)(=O)Cc1ccccc1 | CREB | reporter gene, inhibitor, CRE Renilla luciferase | HEK-293T | 30 min, with: forskolin 10 µM for 5 h |  | IC50 | 54.1 ± 18.2 µM
CC[C@H](C)[C@H](NC(=O)[C@H](CCC(=O)O)NC(=O)[C@H](CO)NC(=O)[C@@H](NC(=O)[C@@H](N)CO)C(C)C)C(=O)N[C@@H](CCC(N)=O)C(=O)N[C@@H](CC(C)C)C(=O)N[C@@H](CCSC)C(=O)N[C@@H](Cc1c[nH]cn1)C(=O)N[C@@H](CC(N)=O)C(=O)N[C@@H](CC(C)C)C(=O)NCC(=O)N[C@@H](CCCCN)C(=O)N[C@@H](Cc1c[nH]cn1)C(=O)N[C@@H](CC(C)C)C(=O)N[C@@H](CC(N)=O)C(=O)N[C@@H](CO)C(=O)N[C@@H](CCSC)C(=O)N[C@@H](CCC(=O)O)C(=O)N[C@@H](CCCNC(=N)N)C(=O)N[C@H](C(=O)N[C@@H](CCC(=O)O)C(=O)N[C@@H](Cc1c[nH]c2ccccc12)C(=O)N[C@@H](CC(C)C)C(=O)N[C@@H](CCCNC(=N)N)C(=O)N[C@@H](CCCCN)C(=O)N[C@@H](CCCCN)C(=O)N[C@@H](CC(C)C)C(=O)N[C@@H](CCC(N)=O)C(=O)N[C@@H](CC(=O)O)C(=O)N[C@H](C(=O)N[C@@H](Cc1c[nH]cn1)C(=O)N[C@@H](CC(N)=O)C(=O)N[C@@H](Cc1ccccc1)C(=O)O)C(C)C)C(C)C | PTH1 receptor | cAMP level, Epac FRET sensor | HEK293 | after ligand washout |  | duration of maximal cAMP | ≥ 20 min
CC1(C)CC[C@]2(C(=O)O)CC[C@]3(C)C(=CC[C@@H]4[C@@]5(C)CC[C@H](O[C@@H]6OC[C@H](O[C@@H]7O[C@H](CO)[C@@H](O)[C@H](O)[C@H]7O)[C@H](O)[C@H]6O)[C@@](C)(CO)[C@@H]5CC[C@]43C)[C@@H]2C1 | PPARs | reporter gene, agonist | HepG2 transfected PPRE-luciferase and PPAR | 20 h |  | EC50 | 900 ± 200 nM
CCCCCCC1N=C(N)N=C(N)N1c1ccc(Cl)cc1 (racemic) | membrane disruption | SYTOX Green uptake | Escherichia coli, ATCC 25922 |  |  | EC50 | 660000 nM
CC(=O)N[C@@H](Cc1ccc(O)cc1)CN(CC(=O)N[C@@H](CCCCN)CN(CC(=O)N[C@@H](Cc1ccccc1)CN(CC(=O)N[C@H]1CCCCNc2c(F)c(F)c(c(F)c2F)S(=O)(=O)c2c(F)c(F)c(c(F)c2F)NCCCC[C@@H](CN(CC(=O)N[C@@H](C)CN(CC(N)=O)S(C)(=O)=O)S(C)(=O)=O)NC(=O)CN(S(=O)(=O)c2ccc(Cl)cc2)C[C@H](CC(C)C)NC(=O)CN(S(=O)(=O)CCN)C1)S(=O)(=O)CC(C)C)S(=O)(=O)CCN)S(C)(=O)=O | CREB | reporter gene, inhibitor, CRE Renilla luciferase | HEK-293T | 30 min, with: forskolin 10 µM for 5 h |  | IC50 | 72.3 ± 44.8 µM
CCCCC[N+](CCCCC)(CCCCC)CCCCC | Kir1.1 (rat) | ion current, blocker, inside-out patch clamp | Xenopus oocytes | concentration not given, +40 mV, with: extracellular K+ 4 to 120 mM |  | fold decrease of inhibition | > 10 fold
Cc1cccc(C)c1NC(=O)c1cc(-c2cccc(O)c2)on1 | mitochondrial permeability transition pore, mouse |  | isolated mouse liver mitochondria | 1.56 µM | relative to: untreated | calcium retention capacity ratio | 8.12 ± 0.59
O=C(CCl)Sc1nnc(-c2n[nH]c(=O)c3ccccc23)o1 | p38 MAPK | ELISA | HepG2 | IC50, 8 h | relative to: untreated | protein level reduction | 82%
CCN1CCN(Cc2ccc(NC(=O)c3ccc(C)c(NC(=O)c4cncc(-c5cnn(C)c5)c4)c3)cc2C(F)(F)F)CC1 | SRC family kinases | inhibitor, Western blot | NCI-H2286 and HCC366 | 0.5 µM, 3 h |  | phosphorylation | inhibited
O=C1Nc2ccc(-c3ccc4cc(O)ccc4c3)cc2/C1=C/c1ccc(N2CCNCC2)cc1 | FGFR3 |  |  |  | relative to: IC50 FGFR3 over lowest IC50 | selectivity ratio | 1
COc1ccc(-c2cc(C(=O)Nc3cccc(Cl)c3C)no2)cc1O | mitochondrial permeability transition pore (mouse) | Ca2+-induced mitochondrial swelling | isolated mouse liver mitochondria |  |  | EC50 | 0.028 nM
C[n+]1c(/C=C/c2ccc(N(c3ccccc3)c3ccccc3)cc2)cc(/C=C2\Sc3ccccc3N2CCCN2CCCC2)c2ccccc21 | Pu27 G-quadruplex DNA | CD melting |  | 5 µM, 60 mM KCl, with: 5 µM G4-DNA |  | ΔTm | 7.4 °C
Cc1ccc(Cl)cc1NC(=O)c1cc(-c2cccc(O)c2)on1 | mitochondrial permeability transition pore, mouse | mitochondrial swelling inhibition | isolated mouse liver mitochondria | with: Ca2+ |  | EC50 | 3.5 ± 0.7 nM
CC(=O)Nc1ccc(Sc2ncccc2C(=O)Nc2ccc(F)cc2)cn1 | P2Y receptors, human | IP1 accumulation, positive allosteric modulator | HEK293 parental | with: ATP |  | span | 43 nM
CC(=O)N[C@@H](Cc1ccc(O)cc1)CN(CC(=O)N[C@@H](CCCCN)CN(CC(=O)N[C@@H](Cc1ccccc1)CN(CC(=O)N[C@H]1CCCCNc2c(F)c(F)c(c(F)c2F)S(=O)(=O)c2c(F)c(F)c(c(F)c2F)NCCCC[C@@H](CN(CC(=O)N[C@@H](C)CN(CC(N)=O)S(=O)(=O)CC(C)C)S(C)(=O)=O)NC(=O)CN(S(=O)(=O)CC(C)C)C[C@H](CC(C)C)NC(=O)CN(S(=O)(=O)CCN)C1)S(=O)(=O)CC(C)C)S(=O)(=O)CCN)S(C)(=O)=O | CREB | reporter gene, inhibitor, CRE Renilla luciferase | HEK-293T | 30 min, with: forskolin 10 µM for 5 h |  | IC50 | 37.4 ± 14.8 µM
Cc1ncc(Cl)cc1NC(=O)c1cc(-c2ccc(F)c(O)c2)on1 | mitochondrial permeability transition pore (mouse) | Ca2+-induced mitochondrial swelling | isolated mouse liver mitochondria |  |  | EC50 | 16 nM

Some of these lines once more:
SMILES | target | test | system | conditions | scale | endpoint | result
C[C@@H](N)C1CCN(S(=O)(=O)c2cccc3c(=O)[nH]ccc23)CC1 | ROCK | MLC2 phosphorylation, inhibitor | HUVEC | 50 µM, 1 h, with: LPA | relative to: LPA alone | inhibition | 61%
CC(=O)Nc1ccc(Sc2ncccc2C(=O)Nc2ccc(F)cc2)cn1 | P2Y receptors, human | IP1 accumulation, positive allosteric modulator | HEK293 parental | with: ATP |  | span | 43 nM
CC[C@H](C)[C@H](NC(=O)[C@H](CCCCN)NC(=O)[C@H](CCCNC(=N)N)NC(=O)[C@H](Cc1ccc(O)cc1)NC(C)=O)C(=O)N[C@@H](CC(C)C)C(=O)N[C@@H](CC(N)=O)C(=O)N[C@@H](CC(=O)O)C(=O)N[C@@H](CC(C)C)C(=O)N[C@@H](CO)C(=O)N[C@@H](CO)C(=O)N[C@@H](CC(=O)O)C(=O)N[C@@H](C)C(N)=O | CREB | reporter gene, inhibitor, CRE Renilla luciferase | HEK-293T | 30 min, with: forskolin 10 µM for 5 h |  | IC50 | > 100 µM
